Assay results from different studies.
Numbered parts are unrelated; each lists some results of a single study.
UniProt P08908, sequence (whole entry, looked up): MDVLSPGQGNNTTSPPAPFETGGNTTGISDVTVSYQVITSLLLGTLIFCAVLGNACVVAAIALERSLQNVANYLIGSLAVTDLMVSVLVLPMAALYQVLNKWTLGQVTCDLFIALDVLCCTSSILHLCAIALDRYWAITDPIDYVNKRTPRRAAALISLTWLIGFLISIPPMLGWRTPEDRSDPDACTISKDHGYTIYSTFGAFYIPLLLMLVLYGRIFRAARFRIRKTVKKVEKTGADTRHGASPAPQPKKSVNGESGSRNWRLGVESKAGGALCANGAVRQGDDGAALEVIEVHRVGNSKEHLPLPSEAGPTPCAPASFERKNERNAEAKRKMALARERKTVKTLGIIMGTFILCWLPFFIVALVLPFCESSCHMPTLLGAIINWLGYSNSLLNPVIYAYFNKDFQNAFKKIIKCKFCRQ
UniProt Q01959, sequence (whole entry, looked up): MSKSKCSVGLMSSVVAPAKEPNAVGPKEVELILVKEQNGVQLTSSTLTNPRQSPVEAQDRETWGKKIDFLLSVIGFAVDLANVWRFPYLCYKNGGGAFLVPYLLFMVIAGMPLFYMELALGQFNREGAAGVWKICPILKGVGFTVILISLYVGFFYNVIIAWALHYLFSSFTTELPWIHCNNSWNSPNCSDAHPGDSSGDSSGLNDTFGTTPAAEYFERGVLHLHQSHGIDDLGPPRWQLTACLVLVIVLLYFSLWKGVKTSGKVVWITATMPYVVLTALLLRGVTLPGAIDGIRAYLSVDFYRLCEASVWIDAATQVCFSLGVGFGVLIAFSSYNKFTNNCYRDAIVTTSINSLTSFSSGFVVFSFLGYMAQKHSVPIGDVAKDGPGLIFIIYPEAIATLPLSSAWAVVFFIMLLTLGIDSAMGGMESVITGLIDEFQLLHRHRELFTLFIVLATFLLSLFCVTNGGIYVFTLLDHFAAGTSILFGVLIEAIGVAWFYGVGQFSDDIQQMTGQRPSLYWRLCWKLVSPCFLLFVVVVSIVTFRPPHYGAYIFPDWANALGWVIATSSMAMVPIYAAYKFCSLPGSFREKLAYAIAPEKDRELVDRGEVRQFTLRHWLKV
UniProt P23975, sequence (whole entry, looked up): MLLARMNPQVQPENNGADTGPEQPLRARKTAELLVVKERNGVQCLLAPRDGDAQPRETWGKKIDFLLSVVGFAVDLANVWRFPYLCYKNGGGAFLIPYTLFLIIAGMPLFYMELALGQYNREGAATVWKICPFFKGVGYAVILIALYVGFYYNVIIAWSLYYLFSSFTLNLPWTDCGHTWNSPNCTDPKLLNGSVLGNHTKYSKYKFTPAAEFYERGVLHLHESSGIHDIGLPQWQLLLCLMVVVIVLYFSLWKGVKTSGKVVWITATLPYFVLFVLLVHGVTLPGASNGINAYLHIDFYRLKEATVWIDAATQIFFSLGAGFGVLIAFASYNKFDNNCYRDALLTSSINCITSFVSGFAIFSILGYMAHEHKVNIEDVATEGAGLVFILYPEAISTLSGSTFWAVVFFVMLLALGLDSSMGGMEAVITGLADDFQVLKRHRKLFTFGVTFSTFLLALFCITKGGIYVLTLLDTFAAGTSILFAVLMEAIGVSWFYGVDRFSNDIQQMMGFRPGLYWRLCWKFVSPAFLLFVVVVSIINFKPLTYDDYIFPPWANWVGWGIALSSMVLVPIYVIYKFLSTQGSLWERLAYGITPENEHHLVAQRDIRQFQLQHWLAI
UniProt P41143, sequence (whole entry, looked up): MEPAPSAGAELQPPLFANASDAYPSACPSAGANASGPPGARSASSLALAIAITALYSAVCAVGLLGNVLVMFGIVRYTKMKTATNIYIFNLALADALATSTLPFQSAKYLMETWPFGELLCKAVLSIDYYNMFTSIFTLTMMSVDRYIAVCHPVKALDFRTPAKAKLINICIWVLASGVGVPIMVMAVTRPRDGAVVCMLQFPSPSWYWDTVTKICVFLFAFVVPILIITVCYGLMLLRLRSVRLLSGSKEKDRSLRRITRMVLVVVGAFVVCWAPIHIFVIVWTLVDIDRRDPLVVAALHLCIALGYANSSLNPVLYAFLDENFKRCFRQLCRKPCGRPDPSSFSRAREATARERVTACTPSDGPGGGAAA
UniProt P31645, sequence (whole entry, looked up): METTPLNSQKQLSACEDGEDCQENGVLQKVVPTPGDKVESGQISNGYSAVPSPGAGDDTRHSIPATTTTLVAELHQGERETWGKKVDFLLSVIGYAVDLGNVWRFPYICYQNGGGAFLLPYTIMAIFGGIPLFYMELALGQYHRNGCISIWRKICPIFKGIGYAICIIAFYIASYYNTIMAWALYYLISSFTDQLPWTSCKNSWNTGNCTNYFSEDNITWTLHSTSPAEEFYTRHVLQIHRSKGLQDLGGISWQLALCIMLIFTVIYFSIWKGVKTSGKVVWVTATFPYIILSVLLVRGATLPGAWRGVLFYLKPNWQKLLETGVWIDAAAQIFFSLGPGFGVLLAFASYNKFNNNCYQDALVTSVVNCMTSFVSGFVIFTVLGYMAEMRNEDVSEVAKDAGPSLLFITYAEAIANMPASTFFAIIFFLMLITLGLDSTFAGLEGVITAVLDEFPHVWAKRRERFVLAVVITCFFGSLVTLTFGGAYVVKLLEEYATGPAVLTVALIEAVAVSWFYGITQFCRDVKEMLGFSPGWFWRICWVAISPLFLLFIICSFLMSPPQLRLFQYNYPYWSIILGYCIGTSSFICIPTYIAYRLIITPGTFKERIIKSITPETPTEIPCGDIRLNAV
UniProt Q9UKS7, sequence (whole entry, looked up): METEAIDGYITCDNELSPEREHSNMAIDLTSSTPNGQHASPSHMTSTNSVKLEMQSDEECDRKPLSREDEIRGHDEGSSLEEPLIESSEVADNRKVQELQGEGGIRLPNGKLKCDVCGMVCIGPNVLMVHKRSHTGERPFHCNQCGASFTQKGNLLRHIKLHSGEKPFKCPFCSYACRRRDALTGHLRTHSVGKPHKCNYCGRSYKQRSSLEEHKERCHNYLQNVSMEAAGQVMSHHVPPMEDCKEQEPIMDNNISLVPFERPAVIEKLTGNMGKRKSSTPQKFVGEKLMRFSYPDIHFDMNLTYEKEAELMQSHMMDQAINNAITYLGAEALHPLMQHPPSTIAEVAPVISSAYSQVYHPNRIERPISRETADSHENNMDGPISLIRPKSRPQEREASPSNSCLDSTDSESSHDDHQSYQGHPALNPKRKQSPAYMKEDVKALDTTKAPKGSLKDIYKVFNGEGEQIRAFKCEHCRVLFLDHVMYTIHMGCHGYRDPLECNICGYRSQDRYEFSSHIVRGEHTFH
UniProt P35372, sequence (whole entry, looked up): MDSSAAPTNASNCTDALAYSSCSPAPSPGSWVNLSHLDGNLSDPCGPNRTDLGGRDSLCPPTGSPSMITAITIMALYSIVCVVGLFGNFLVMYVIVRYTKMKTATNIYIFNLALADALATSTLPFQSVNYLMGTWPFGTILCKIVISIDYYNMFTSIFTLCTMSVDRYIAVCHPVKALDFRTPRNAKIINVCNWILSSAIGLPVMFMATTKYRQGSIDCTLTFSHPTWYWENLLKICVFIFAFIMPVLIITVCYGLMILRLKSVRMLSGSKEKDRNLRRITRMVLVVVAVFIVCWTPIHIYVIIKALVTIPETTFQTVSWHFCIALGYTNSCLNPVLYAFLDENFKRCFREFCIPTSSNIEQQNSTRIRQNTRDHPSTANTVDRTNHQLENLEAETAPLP
UniProt P21918, sequence (whole entry, looked up): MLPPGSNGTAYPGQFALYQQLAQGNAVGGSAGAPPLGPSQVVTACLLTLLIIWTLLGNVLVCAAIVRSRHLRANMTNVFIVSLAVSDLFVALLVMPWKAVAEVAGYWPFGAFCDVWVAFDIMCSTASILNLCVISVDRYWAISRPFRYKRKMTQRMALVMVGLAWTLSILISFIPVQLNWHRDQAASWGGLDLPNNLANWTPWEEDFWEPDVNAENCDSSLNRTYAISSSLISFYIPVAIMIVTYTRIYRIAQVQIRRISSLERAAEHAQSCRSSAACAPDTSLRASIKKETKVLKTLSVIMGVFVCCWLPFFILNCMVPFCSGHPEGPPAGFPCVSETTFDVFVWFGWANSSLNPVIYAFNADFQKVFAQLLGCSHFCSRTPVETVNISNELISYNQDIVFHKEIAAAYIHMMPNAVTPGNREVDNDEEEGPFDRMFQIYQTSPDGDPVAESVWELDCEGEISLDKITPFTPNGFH
UniProt Q96SW2, sequence (whole entry, looked up): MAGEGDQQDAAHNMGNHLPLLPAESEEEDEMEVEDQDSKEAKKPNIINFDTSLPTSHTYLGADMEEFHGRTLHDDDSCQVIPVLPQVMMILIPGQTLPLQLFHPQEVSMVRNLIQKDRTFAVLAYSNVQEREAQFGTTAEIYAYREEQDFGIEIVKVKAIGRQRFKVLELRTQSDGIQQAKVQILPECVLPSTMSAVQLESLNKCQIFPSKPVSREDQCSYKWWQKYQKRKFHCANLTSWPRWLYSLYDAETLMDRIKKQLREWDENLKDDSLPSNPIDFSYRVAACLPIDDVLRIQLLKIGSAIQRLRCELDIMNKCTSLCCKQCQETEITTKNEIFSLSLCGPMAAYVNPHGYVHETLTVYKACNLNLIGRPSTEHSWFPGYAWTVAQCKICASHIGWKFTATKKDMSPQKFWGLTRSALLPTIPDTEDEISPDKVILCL

Study 1
Organism: Sarcocystis neurona
Read-out: parasite growth
Tested at: 10 µM
Time: 96 h
Notes: first screen
Baseline: untreated
Under “log2 fold change”, CN1CCCC(n2nc(Cc3ccc(Cl)cc3)c3ccccc3c2=O)CC1 (stereo not shown) is recorded as -2.48.
Under “log2 fold change”, Oc1c(Cl)cc(Cl)c2cccnc12 is recorded as -4.88.
O=c1[nH]cc(F)c(=O)[nH]1: “log2 fold change” -3.58.
Under “log2 fold change”, CCCC(C)(COC(N)=O)COC(=O)NC(C)C (stereo not shown) is recorded as 0.27.
For CC(NC(C)(C)C)C(=O)c1cccc(Cl)c1 (stereo not shown), “log2 fold change” read 0.3.
Cc1ncc2n1-c1ccc(Cl)cc1C(c1ccccc1F)=NC2 — result for “log2 fold change”: 0.18.

Study 2
Cell line: mouse MPNST tumor cells
Method: high-content immunofluorescence imaging
Refers to: nuclear SOX9
Tested at: 10 µM
Time: 12 h
Notes: mean of 2 replicates
Baseline: DMSO control
Direction: higher = more nuclear SOX9
CN1C2C=C(c3sccc3Br)CC1CC2 (stereo not shown): “nuclear SOX9 intensity” 97.9 % of DMSO.
C=CCN1CC[C@]23c4c5ccc(O)c4O[C@H]2C(=O)CC[C@@]3(O)[C@H]1C5: “nuclear SOX9 intensity” 102 % of DMSO.
CC(=O)N1N=C(c2ccc(N)cc2)c2cc3c(cc2C[C@H]1C)OCO3 — result for “nuclear SOX9 intensity”: 101 % of DMSO.
CCNC1=Nc2ccc(Cl)cc2C(C)(c2ccccc2)O1 (stereo not shown) — result for “nuclear SOX9 intensity”: 101 % of DMSO.
For Cc1cc(SCc2sc(-c3ccc(C(F)(F)F)c(F)c3)nc2C)ccc1OCC(=O)O, “nuclear SOX9 intensity” read 90.4 % of DMSO.

Study 3
SMILES: N#CN1CC[C@H](C(=O)Nc2nc3c(s2)CN(C(=O)CN=[N+]=[N-])CC3)C1
Tested at: 10 µM
SLC6A3 (Homo sapiens, UniProt Q01959); binding, radioligand binding — inhibition: -2.33%.
For DRD5 (Homo sapiens, UniProt P21918); ligand displacement: inhibition read 7.55%.
OPRD1 (Homo sapiens, UniProt P41143); ligand displacement — inhibition: 8.43%.
It gave 12.6% for inhibition (OPRM1 (Homo sapiens, UniProt P35372); ligand displacement).
SLC6A4 (Homo sapiens, UniProt P31645); binding, radioligand binding — inhibition: 2.49%.
The inhibition was 7.61% (HTR1A (Homo sapiens, UniProt P08908); ligand displacement).
For SLC6A2 (Homo sapiens, UniProt P23975); binding, radioligand binding: inhibition read 2.61%.

Other studies, line by line
O=C1CCC(N2Cc3c(ccc4c3OCC43CCN(Cc4ccccc4)C3)C2=O)C(=O)N1 (stereo not shown) has a protein remaining of 97.8% (CRBN/Zinc finger protein Helios (Homo sapiens, UniProt Q96SW2+Q9UKS7); degrader, HiBiT; HEK293; 0.1694 nM).

Repeated from above (study 1):
Under “log2 fold change”, Oc1c(Cl)cc(Cl)c2cccnc12 is recorded as -4.88.
